Experimental data from different studies.
Numbered parts are unrelated; each lists some results of a single study. Several values in a cell are separate wells, animals, samples, runs or records.
UniProt Q13237, sequence (whole entry, looked up): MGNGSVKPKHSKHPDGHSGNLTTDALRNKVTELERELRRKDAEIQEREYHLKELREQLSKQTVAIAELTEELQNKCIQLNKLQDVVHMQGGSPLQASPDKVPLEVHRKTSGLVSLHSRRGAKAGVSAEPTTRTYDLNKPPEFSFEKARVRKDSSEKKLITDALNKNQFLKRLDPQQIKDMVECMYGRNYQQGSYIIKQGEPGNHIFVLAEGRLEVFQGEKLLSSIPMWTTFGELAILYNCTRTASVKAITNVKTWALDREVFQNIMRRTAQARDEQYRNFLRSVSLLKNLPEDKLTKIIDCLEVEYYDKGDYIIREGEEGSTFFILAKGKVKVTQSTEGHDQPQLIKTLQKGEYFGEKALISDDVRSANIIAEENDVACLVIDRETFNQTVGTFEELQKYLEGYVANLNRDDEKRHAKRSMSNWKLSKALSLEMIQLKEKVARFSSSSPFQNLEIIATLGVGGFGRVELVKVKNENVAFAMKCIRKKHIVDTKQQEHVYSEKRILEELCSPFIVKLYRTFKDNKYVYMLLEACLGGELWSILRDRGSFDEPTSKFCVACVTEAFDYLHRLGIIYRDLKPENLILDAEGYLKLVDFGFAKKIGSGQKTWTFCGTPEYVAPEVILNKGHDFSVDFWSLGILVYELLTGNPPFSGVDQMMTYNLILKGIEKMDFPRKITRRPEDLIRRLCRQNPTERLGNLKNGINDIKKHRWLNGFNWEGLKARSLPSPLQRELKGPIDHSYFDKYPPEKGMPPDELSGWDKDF
UniProt P50750, sequence (whole entry, looked up): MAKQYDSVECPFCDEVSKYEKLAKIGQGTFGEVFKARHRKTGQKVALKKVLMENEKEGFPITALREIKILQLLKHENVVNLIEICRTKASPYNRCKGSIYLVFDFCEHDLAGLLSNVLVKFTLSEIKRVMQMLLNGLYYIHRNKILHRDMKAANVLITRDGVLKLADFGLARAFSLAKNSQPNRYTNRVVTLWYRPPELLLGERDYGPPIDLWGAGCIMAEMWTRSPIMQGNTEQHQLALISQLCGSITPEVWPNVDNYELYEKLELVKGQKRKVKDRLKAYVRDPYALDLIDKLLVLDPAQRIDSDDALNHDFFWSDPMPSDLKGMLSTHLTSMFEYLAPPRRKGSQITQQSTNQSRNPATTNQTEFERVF
UniProt Q9HAZ1, sequence (whole entry, looked up): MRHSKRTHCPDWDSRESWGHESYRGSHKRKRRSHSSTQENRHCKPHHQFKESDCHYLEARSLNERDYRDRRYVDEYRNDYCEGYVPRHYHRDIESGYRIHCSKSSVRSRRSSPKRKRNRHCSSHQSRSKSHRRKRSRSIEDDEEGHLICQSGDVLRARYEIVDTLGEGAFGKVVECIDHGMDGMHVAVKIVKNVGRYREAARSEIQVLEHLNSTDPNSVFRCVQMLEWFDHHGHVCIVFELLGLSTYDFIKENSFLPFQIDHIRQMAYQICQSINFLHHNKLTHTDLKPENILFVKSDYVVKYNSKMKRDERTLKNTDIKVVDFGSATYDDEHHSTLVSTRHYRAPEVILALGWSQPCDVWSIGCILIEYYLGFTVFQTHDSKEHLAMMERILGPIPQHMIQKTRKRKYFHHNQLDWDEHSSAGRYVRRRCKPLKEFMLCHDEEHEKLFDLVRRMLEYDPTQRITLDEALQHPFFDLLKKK
UniProt Q15759, sequence (whole entry, looked up): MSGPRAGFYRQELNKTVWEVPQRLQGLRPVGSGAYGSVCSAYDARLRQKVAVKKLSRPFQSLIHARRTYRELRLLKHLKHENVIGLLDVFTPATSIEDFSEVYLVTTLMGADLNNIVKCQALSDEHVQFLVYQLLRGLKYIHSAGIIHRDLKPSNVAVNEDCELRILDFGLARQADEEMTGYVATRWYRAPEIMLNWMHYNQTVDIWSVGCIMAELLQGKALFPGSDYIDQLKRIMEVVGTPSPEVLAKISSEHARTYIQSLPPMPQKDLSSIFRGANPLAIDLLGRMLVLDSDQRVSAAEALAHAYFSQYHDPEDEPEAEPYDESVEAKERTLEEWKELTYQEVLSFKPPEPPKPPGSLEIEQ
UniProt P51955, sequence (whole entry, looked up): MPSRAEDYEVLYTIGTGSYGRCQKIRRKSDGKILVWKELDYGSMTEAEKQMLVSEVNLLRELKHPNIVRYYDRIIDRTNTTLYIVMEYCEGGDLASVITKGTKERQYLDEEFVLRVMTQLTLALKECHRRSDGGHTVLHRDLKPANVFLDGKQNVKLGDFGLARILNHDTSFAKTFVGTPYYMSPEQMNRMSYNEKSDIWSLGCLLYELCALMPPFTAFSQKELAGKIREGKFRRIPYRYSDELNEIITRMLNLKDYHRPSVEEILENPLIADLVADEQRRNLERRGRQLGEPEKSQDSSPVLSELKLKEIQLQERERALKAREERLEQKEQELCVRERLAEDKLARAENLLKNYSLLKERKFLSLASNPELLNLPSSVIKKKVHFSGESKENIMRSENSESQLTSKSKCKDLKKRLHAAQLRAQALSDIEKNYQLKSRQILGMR

Sample 1 — SMILES: CCN(CC)CCCCN1c2ccccc2Oc2ccc(Cl)cc21; read-out: enzyme activity; mode: inhibitor; concentration: 0.5 µM; relative to: control
target | remaining activity
GRK4 (Homo sapiens, UniProt P32298) | 102%
KDR (Homo sapiens, UniProt P35968) | 93.7%
MAPK11 (Homo sapiens, UniProt Q15759) | 103%
DDR2 (Homo sapiens, UniProt Q16832) | 99.4%
MET (Homo sapiens, UniProt P08581) | 105%
PRKG2 (Homo sapiens, UniProt Q13237) | 94.4%
PNCK (Homo sapiens, UniProt Q6P2M8) | 107%
Cyclin-dependent kinase 1, with cyclin A (CDK1, Homo sapiens, UniProt P06493) | 99.3%
MAPK14 (Homo sapiens, UniProt Q16539) | 95.8%
PLK3 (Homo sapiens, UniProt Q9H4B4) | 102%
ROCK1 (Homo sapiens, UniProt Q13464) | 92.6%
CLK4 (Homo sapiens, UniProt Q9HAZ1) | 97%
Cyclin-dependent kinase 9, with cyclin K (CDK9, Homo sapiens, UniProt P50750) | 105%
CAMK4 (Homo sapiens, UniProt Q16566) | 98.9%

Sample 2 — read-out: enzyme activity; mode: inhibitor; concentration: 77 µM; relative to: untreated
Target: DNA polymerase theta, ATPase domain (POLQ, Homo sapiens, UniProt O75417)
UniProt O75417, sequence (whole entry, unmodified, looked up): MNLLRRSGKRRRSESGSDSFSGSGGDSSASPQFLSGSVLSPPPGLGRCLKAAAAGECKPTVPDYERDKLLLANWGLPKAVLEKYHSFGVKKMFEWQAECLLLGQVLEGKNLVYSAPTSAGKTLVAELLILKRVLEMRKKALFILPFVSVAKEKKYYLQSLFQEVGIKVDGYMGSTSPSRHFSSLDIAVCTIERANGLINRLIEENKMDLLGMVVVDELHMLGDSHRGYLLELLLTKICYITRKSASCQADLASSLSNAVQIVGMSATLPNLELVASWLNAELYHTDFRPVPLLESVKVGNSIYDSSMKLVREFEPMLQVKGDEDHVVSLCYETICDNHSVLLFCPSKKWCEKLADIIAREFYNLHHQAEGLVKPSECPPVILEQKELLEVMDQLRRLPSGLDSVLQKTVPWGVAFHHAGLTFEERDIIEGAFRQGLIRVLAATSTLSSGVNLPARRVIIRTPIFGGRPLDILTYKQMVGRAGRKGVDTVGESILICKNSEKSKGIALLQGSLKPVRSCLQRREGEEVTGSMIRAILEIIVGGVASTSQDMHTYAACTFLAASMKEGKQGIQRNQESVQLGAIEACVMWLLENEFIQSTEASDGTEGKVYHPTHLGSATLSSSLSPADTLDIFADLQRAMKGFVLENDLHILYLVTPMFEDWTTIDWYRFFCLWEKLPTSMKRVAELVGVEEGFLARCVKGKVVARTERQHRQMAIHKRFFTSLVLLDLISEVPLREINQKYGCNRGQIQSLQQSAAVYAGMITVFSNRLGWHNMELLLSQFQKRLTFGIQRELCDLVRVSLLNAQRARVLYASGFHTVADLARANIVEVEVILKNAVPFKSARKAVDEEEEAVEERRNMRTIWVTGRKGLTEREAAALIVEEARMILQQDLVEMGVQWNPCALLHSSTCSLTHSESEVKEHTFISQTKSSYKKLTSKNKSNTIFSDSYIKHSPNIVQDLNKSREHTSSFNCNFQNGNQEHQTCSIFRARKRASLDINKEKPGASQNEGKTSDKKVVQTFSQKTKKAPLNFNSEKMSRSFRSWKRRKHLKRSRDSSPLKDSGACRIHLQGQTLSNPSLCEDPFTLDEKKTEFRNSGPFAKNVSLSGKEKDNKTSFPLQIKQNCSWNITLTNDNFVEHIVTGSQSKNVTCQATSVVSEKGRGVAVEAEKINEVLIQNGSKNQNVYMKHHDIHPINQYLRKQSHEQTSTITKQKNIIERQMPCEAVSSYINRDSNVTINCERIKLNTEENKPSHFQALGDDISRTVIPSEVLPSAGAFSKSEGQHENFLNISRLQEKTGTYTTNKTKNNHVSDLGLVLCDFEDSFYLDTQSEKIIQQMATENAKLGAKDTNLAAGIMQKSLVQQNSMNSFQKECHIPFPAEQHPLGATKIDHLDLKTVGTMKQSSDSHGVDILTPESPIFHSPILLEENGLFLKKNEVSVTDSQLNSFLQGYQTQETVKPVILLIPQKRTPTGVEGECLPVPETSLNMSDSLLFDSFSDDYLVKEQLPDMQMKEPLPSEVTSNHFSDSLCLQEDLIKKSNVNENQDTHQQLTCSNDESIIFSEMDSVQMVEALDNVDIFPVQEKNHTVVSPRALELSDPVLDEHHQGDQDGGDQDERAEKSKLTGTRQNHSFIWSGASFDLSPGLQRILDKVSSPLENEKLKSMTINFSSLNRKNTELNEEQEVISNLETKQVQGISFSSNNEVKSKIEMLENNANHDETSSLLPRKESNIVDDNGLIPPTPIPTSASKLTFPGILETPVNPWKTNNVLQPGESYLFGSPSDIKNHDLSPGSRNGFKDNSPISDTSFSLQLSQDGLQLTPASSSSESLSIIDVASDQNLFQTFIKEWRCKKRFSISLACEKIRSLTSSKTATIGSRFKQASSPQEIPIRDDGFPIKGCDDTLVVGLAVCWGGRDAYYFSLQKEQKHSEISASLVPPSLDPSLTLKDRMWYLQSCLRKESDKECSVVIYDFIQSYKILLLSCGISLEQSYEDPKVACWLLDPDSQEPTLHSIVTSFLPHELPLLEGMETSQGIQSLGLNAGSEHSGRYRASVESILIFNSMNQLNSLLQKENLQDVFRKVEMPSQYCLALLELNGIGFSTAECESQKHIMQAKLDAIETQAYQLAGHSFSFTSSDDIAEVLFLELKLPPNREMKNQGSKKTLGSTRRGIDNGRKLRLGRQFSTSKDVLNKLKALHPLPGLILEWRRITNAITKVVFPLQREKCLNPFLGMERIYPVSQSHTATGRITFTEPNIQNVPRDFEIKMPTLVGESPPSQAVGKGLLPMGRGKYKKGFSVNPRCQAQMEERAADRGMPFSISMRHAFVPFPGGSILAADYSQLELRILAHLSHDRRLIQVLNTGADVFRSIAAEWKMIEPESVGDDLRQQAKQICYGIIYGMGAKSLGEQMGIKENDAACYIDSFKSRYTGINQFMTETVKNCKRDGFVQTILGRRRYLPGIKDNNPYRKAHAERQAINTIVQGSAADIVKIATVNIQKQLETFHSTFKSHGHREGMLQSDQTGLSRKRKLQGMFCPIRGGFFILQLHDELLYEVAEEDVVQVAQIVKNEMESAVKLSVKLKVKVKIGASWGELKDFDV
SMILES | remaining activity
C=CCOc1ccccc1OCC(O)CNC(C)C (centres unmarked) | 102%
Nc1c(CC(=O)O)cccc1C(=O)c1ccccc1 | 101%
N[C@@H]1[C@H]2CN(c3nc4c(cc3F)c(=O)c(C(=O)O)cn4-c3ccc(F)cc3F)C[C@@H]12 | 97.4%
COC(c1ccccc1)(c1ccccc1)[C@H](Oc1nc(C)cc(C)n1)C(=O)O | 94.5%
O=C1C[C@@H](c2ccc(O)cc2)Oc2cc(O)cc(O)c21 | 101% and 102%
CNC(=O)[C@H]1O[C@@H](n2cnc3c(NCc4cccc(I)c4)ncnc32)[C@H](O)[C@@H]1O | 107%
Cc1cc(C(=O)NNCc2ccccc2)no1 | 96.2%

Sample 3 — read-out: cell-free assay; technique: competition with immobilised ligand; concentration: 1 µM
Structure (SMILES): C[C@@H]1CN(c2cc(-c3nn(C)c4ccc(OC5(C)CC5)cc34)ncn2)C[C@H](C)O1
target | remaining binding [%]
CDKL3 (Homo sapiens, UniProt Q8IVW4) | 88
PRKCE (Homo sapiens, UniProt Q02156) | 100
eIF-2-alpha kinase GCN2, C-terminal kinase domain (EIF2AK4, Homo sapiens, UniProt Q9P2K8, S808G) | 100
TGFBR1 (Homo sapiens, UniProt P36897) | 89
SLK (Homo sapiens, UniProt Q9H2G2) | 100
ZAP70 (Homo sapiens, UniProt P43403) | 100
TRPM6 (Homo sapiens, UniProt Q9BX84) | 85
NEK2 (Homo sapiens, UniProt P51955) | 100

Sample 4 — cell line: mouse MPNST tumor cells; technique: high-content immunofluorescence imaging; item: nuclear SOX9; concentration: 10 µM; time: 12 h; setting: mean of 2 replicates; relative to: DMSO control; reading: higher = more nuclear SOX9
SMILES | nuclear SOX9 intensity
CC(CN(C)C)CN1c2ccccc2CCc2ccccc21 (centres unmarked) | 169 % of DMSO
COc1cc2ncn(-c3cc(OCc4ccccc4C(F)(F)F)c(C(N)=O)s3)c2cc1OC | 104 % of DMSO
CN(C)CCCCSC(=N)N | 88.6 % of DMSO
COC(=O)Nc1nc2ccc(SC(C)C)cc2[nH]1 | 182 % of DMSO
CN(C)CCOC(c1ccccc1)c1ccccc1 | 113 % of DMSO
CCCCNc1ccc(C(=O)OCCN(C)C)cc1 | 99.5 % of DMSO
O=C(OCCOCCO)c1ccccc1Nc1cccc(C(F)(F)F)c1 | 107 % of DMSO
COc1ccc(-c2c(C)nn3c(C(F)(F)F)cc(C)nc23)c(F)c1F | 111 % of DMSO
O=C(NCCCCN1CCOCC1)c1cc2ccccc2o1 | 94.7 % of DMSO

Excerpt of the above (sample 1):
target | remaining activity
MET (Homo sapiens, UniProt P08581) | 105%
PRKG2 (Homo sapiens, UniProt Q13237) | 94.4%
PNCK (Homo sapiens, UniProt Q6P2M8) | 107%
Cyclin-dependent kinase 1, with cyclin A (CDK1, Homo sapiens, UniProt P06493) | 99.3%
